Experimental data from different studies.
Each line is one published result; not all experiments were run side by side. “And” joins repeats or separate records; there may be more than shown. ± marks the error that the study gave.

For O=C(C[Se]C(=O)c1ccc2ccccc2c1)Nc1cccc(C(F)(F)F)c1, the mean TGI was 3.63 µM (NCI60 ovarian subpanel; total growth inhibition, inhibitor; five-dose).
CCCCCCCCCCCCCCCC(=O)OCC(CSC[C@H](N)C(=O)N[C@@H](CO)C(=O)N[C@@H](CCCCN)C(=O)N[C@@H](CCCCN)C(=O)N[C@@H](CCCCN)C(=O)N[C@@H](CCCCN)C(=O)NCCCCCC(=O)N[C@@H](CCCCN)C(=O)N[C@@H](CC(C)C)C(=O)N[C@H](C(=O)N[C@@H](Cc1ccccc1)C(=O)N[C@@H](Cc1ccccc1)C(=O)N[C@@H](Cc1ccc2ccccc2c1)C(=O)O)C(C)C)OC(=O)CCCCCCCCCCCCCCC (stereo partly shown) gave a protein level of 1.33 and 1.39 (BV-2; Western blot, measured: MSR1; concentration not given, unit not given; baseline: control).
COc1cc(N2CCN(C(=O)C3CCCN3)CC2)ccc1Nc1ncc(Cl)c(Nc2ccccc2P(C)(C)=O)n1 (stereo not shown) — result for “early apoptotic cells”: 4.5% (Ba/F3 EML4-ALK; annexin V flow cytometry; concentration not given, 6 h).
Under “mean growth percent”, O=C(C[Se]C(=O)c1cc2ccccc2s1)Nc1cccc(C(F)(F)F)c1 is recorded as -75.7% (NCI60 ovarian subpanel; cell growth; 10 µM, 48 h, one-dose).
For COCCCCCNc1nc(NCCCCCCN(C)C)c2cc(NC(=O)/C=C/CN(C)C)ccc2n1, the viability was 1.04 and 0.977 and 1.02 (MCF7; CellTiter-Glo; 0.7812 µM, 24 h, unit not given; baseline: DMSO-treated cells).
C=CC(=O)N1[C@@H](c2ccc3c(c2)OCO3)c2[nH]c3ccccc3c2C[C@H]1C(=O)NC1CC1 gave a neuron degeneration of 37.5% and 46.8% (rat DRG neurons; 3.333 µM, 48 h, together with: vincristine 40 nM).
CN(C)CCN1CCN(c2ccc3nc(-c4ccc5nc(-c6ccc(C(F)(F)F)cc6)[nH]c5c4)[nH]c3c2)CC1 has a growth percent of 67.8% (SF-268; SRB; 10 µM, 48 h).
COP(=O)(OC)OC[C@H]1OC(O)(COP(=O)(O)O)[C@@H](O)[C@@H]1O (stereo partly shown) has a cell proliferation of 61.7% and 45.9% and 67.2% (HepG2 sgCTRL; CCK-8; concentration not given; baseline: control).
Cc1ncsc1-c1ccc(C(C)NC(=O)C2CC(O)CN2C(=O)C(NC(=O)CCCCCCCCCCN2CCCC(Nc3ncc(Cl)c(Nc4ccccc4S(=O)(=O)C(C)C)n3)C2)C(C)(C)C)cc1 (stereo not shown) — result for “log2 fold change”: -1.38 (22Rv1; RNA-seq, measured: NCR3LG1 mRNA; concentration not given; baseline: DMSO).
The colony count of CO[C@@H]1[C@@H](OC(N)=O)[C@@H](O)[C@H](Oc2ccc3c(O)c(NC(=O)c4ccc(O)c(CC=C(C)C)c4)c(=O)oc3c2C)OC1(C)C is reported as 0.1 (DLD-1 BRCA2-/-; 300 µM, replicate 1).
CSCC[C@H](NC=O)C(=O)N[C@@H](CCCNC(=N)N)C(=O)N[C@H](C(=O)NCC(=O)N[C@@H](CC(N)=O)C(=O)N[C@@H](C)C(=O)N[C@@H](CC(N)=O)C(=O)NCC(=O)NCC(=O)N[C@@H](CCCCNC(=S)Nc1ccc2c(c1)C(=O)OC21c2ccc(O)cc2Oc2cc(O)ccc21)C(=O)O)[C@@H](C)O — result for “fluorescence intensity increase”: 11 fold (Escherichia coli BL21(DE3); confocal fluorescence microscopy; 1 µM, 3 h, FITC-labelled; baseline: control).
The mean TGI of COc1ccc2c(c1)c(CC(=O)[Se]CC(=O)Nc1cccc(C(F)(F)F)c1)c(C)n2C(=O)c1ccc(Cl)cc1 is reported as 4.06 µM (NCI60 ovarian subpanel; total growth inhibition, inhibitor; five-dose).
N#Cc1cccc(/C=C/C(=O)c2ccc(O)cc2)c1 gave a mRNA level of 0.033 fold (U-87 MG; measured: KY; concentration not given; baseline: untreated).
The metabolite level of COC(=O)c1cc(NC2=NC(=O)C(=Cc3ccc(N(C)C)cc3)S2)ccc1OC(C)=O is reported as -0.31 fold change (MCF7; GC-MS, measured: diacetone alcohol; 1 µM; baseline: DMSO).
For CCN(CC)CC(=O)Nc1cccc(-n2cc(-c3ccc4ccc(-c5cn(-c6cccc(NC(=O)CN(CC)CC)c6)nn5)cc4c3)nn2)c1, the fold regulation was -2.1 (RCC4; PCR angiogenesis array, measured: CXCL6; 5 x IC50, 6 h, normoxia; baseline: untreated).
CCCCCCCCCCCC(=O)N[C@H](CO)C[C@@H](O)c1ccccc1 — result for “Cer 24:1 level”: 23300 pmol/sample and 24000 pmol/sample and 23900 pmol/sample (HeLa; HPLC-MS/MS; 1 µM, 24 h).
Cn1ncc2cc(-c3cncc(Cl)c3N3CCC4(CCNC4=O)CC3)ccc21: “log2 fold change” 1.91 (LS174T; gene expression, microarray, measured: VLDLR mRNA; concentration not given, 4 h; baseline: untreated cells).
With Cn1ncc(-c2ccc3c(=O)[nH]nc(CN)c3c2)c1-c1c(F)c(Cl)cc(OC2CC2)c1C#N the IC50 was 30 nM (A3/KAW; cell viability; 120 h, relative IC50).
The cytotoxicity of Cc1ccc(-n2cc(CSc3nc4ccccc4n3Cc3cn(-c4ccc(C)cc4)nn3)nn2)cc1 is reported as 38.6% (Caco-2; MTT; 7.81 ppm).
COC1CN([C@H]2CC[C@H]([C@@]3(C)Oc4c(Cl)cc(C(=O)NCc5c(SC)cc(C)[nH]c5=O)c(C)c4O3)CC2)C1 — result for “log2 fold change”: 3.45 (RNA-seq, measured: KIT; human cancer patients, whole blood; dose not given, 24 h, PRC2 target gene; baseline: pretreatment sample).
With COc1cccc(OC)c1-c1cc(C(=O)NC2(C(=O)O)C3CC4CC(C3)CC2C4)nn1-c1ccc(C(=O)N(C)CCCN(C)CCCN(C)C(=O)[C@H](CCCCNC(=O)[C@H](CC(C)C)NC(=O)C2OC2C(=O)O)NC(=O)CN2CCN(CC(=O)[O-])CCN(CC(=O)[O-])CCN(CC(=O)[O-])CC2)cc1C(C)C.[177Lu+3] (mixture of isomers) the internalized fraction was 4.68 ± 0.54% (HT-29; concentration not given, 60 min; baseline: added activity).
The GI50 of CCN(C(=O)c1cc(F)ccc1Oc1nncnc1N1CCC2(C1)CN([C@H](CCCN(C)CCOC)C(C)C)C2)C(C)C is reported as over 10 µM (RD-ES; cell growth or viability; 72 h).
Under “mean growth percent”, O=C(C[Se]C(=O)c1cc2ccccc2o1)Nc1cccc(C(F)(F)F)c1 is recorded as -79.3% (NCI60 ovarian subpanel; cell growth; 10 µM, 48 h, one-dose).
CC(C)c1ccc(N(C)c2ccc3c(c2)OCC[C@H]3CNc2cnccc2C(=O)O)cc1 gave an IC50 of at least 10000 nM (OS-RC-2; cell viability, CellTiter-Glo; 7 days).
Under “log2 fold change”, CN1CCCNC(=O)c2cccc(c2)C(=O)NCCCN(C)CCCNc2cccc3c2C(=O)c2cccc(c2C3=O)NCCC1 is recorded as -0.803 (SAS; RNA-Seq, measured: GNAI1 mRNA; 1 µM, 6 h; baseline: untreated cells).
The cell growth of O=C(Nc1nnc2c1c(-c1ccc(Cl)cc1)nc1sc(=Cc3ccco3)c(=O)n12)c1ccccc1 (mixture of isomers) is reported as 40.4% (IGROV-1; SRB; 10 µM, NCI60 single-dose screen; baseline: untreated).
For Cc1[nH]c(=S)[nH]c(=O)c1/N=N/c1nnc(S)[nH]1, the inhibition was 15.3 ± 1.49% (Vero; cell viability, MTT; 2.5 µg/mL).
With O=C(C[Se]C(=O)c1ccccc1Nc1ccccc1)Nc1cccc(C(F)(F)F)c1 the mean TGI was 3.49 µM (NCI60 ovarian subpanel; total growth inhibition, inhibitor; five-dose).
For COc1ccccc1-c1ccncc1C(=O)Nc1nnc(OCc2ccc(Cl)cc2)s1, the colony survival was 96% (MDA-MB-231 (BRCA1 wild-type); colony formation; 0.375 µM; baseline: untreated control).
The viability of Cc1cc(Cl)cc(-c2ccnc3cc(CN4C(=O)C5C(C4=O)C5(C)C)sc23)c1C[C@@H]1CNCCO1 (stereo partly shown) is reported as 16.3% (CHP-212; SRB; 2.5 µM).
CNS(=O)(=O)Nc1nccc(Cc2c(C)c3ccc(Oc4ncccc4F)cc3oc2=O)c1F has an IC50 of over 1000 nM (NMC-G1; cell viability, CellTiter-Glo; 7 days).
For CCOc1cncc(-c2ccc(NC(=O)C3(c4ccnc(NS(=O)(=O)C5CC5)n4)CCOCC3)nc2)n1, the IC50 was 5 nM (L-363; cell growth or viability, ATP luminescence; 72 h).
Nc1ncn([C@@H]2O[C@H](CO)[C@@H](O)[C@H]2O)c(=O)n1 has an inhibition of -4.44% (AML blasts, primary, RUNX1-mutated; CD34+ blast expansion; 810 nM, HUVEC co-culture).
With CN(C)c1ccc(-n2cc(COC(=O)[C@]3(C)C=C(C(=O)OC(C)(C)C)C(=O)CC3)nn2)cc1 the pRSK/tubulin ratio was 0.161 (HeLa; quantitative western blot; concentration not given, 0 (unit not given), together with: EGF).

A few entries again:
With Cn1ncc(-c2ccc3c(=O)[nH]nc(CN)c3c2)c1-c1c(F)c(Cl)cc(OC2CC2)c1C#N the IC50 was 30 nM (A3/KAW; cell viability; 120 h, relative IC50).
The cytotoxicity of Cc1ccc(-n2cc(CSc3nc4ccccc4n3Cc3cn(-c4ccc(C)cc4)nn3)nn2)cc1 is reported as 38.6% (Caco-2; MTT; 7.81 ppm).
COC1CN([C@H]2CC[C@H]([C@@]3(C)Oc4c(Cl)cc(C(=O)NCc5c(SC)cc(C)[nH]c5=O)c(C)c4O3)CC2)C1 — result for “log2 fold change”: 3.45 (RNA-seq, measured: KIT; human cancer patients, whole blood; dose not given, 24 h, PRC2 target gene; baseline: pretreatment sample).
With COc1cccc(OC)c1-c1cc(C(=O)NC2(C(=O)O)C3CC4CC(C3)CC2C4)nn1-c1ccc(C(=O)N(C)CCCN(C)CCCN(C)C(=O)[C@H](CCCCNC(=O)[C@H](CC(C)C)NC(=O)C2OC2C(=O)O)NC(=O)CN2CCN(CC(=O)[O-])CCN(CC(=O)[O-])CCN(CC(=O)[O-])CC2)cc1C(C)C.[177Lu+3] (mixture of isomers) the internalized fraction was 4.68 ± 0.54% (HT-29; concentration not given, 60 min; baseline: added activity).
